Experimental data gathered from unrelated publications.
Values joined by “and” are separate records of one study, mostly repeats; a detail may differ. ± gives the spread as reported.
CYP2A6: Cytochrome P450 2A6 (CYP2A6, Homo sapiens, UniProt P11509)
Sequence of UniProt P11509 (whole entry, looked up): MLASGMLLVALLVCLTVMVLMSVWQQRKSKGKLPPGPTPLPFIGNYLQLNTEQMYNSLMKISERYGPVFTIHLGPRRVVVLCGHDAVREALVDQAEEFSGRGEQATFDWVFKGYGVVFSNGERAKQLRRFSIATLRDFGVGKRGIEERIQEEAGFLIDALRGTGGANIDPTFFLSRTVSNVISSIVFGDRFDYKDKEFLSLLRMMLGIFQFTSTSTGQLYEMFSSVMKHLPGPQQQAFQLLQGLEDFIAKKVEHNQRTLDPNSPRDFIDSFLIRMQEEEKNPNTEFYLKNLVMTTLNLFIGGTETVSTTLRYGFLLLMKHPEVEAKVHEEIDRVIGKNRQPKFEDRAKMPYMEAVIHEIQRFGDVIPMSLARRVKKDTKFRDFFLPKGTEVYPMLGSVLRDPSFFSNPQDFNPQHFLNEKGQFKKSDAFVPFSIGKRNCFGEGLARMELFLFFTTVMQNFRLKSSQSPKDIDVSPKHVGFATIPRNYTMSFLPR
KCNH2: Voltage-gated inwardly rectifying potassium channel KCNH2 (KCNH2, Homo sapiens, UniProt Q12809)
Sequence of UniProt Q12809 (whole entry, looked up): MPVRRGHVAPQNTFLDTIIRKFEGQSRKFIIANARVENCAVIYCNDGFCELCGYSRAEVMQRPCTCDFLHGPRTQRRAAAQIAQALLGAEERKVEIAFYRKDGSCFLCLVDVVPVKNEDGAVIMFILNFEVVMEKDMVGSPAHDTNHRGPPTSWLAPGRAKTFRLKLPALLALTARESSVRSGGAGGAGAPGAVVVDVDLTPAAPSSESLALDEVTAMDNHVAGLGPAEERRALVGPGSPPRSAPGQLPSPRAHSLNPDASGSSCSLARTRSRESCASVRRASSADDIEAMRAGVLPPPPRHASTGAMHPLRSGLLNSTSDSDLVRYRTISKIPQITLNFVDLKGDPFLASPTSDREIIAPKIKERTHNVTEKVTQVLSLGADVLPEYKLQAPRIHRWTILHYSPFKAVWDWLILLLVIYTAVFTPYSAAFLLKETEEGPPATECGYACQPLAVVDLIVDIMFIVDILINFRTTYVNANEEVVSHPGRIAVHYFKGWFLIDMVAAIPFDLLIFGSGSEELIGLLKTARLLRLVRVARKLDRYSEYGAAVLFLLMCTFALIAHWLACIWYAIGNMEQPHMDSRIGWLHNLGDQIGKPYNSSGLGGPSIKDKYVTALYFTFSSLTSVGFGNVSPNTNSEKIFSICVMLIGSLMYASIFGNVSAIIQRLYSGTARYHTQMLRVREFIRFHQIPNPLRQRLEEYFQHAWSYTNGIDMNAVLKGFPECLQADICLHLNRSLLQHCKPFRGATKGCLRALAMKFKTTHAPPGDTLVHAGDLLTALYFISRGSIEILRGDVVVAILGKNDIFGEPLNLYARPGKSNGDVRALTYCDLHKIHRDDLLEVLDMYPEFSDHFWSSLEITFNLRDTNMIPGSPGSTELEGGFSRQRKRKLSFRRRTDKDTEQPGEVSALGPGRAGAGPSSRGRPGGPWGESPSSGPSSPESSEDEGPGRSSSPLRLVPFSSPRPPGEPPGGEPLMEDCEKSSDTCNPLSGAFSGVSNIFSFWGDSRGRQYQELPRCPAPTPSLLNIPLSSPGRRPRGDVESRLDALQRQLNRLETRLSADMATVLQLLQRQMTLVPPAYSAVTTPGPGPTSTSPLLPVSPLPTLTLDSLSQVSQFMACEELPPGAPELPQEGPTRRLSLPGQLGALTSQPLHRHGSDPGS
CYP3A4: Cytochrome P450 3A4 (CYP3A4, Homo sapiens, UniProt P08684)
Sequence of UniProt P08684 (whole entry, looked up): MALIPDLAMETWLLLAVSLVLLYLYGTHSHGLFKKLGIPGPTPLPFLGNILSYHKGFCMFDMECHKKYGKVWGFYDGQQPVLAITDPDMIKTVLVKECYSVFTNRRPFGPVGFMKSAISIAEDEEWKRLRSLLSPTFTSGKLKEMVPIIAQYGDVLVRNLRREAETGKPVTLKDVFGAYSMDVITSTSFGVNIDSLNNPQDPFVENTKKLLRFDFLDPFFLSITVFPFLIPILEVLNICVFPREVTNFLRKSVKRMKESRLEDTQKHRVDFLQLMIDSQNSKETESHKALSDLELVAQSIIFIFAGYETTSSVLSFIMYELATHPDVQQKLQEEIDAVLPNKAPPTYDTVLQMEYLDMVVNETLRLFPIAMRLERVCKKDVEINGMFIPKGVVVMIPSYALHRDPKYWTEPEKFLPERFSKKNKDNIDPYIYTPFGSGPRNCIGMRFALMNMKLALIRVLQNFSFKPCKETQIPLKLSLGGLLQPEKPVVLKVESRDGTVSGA
ABCG2: Broad substrate specificity ATP-binding cassette transporter ABCG2 (ABCG2, Homo sapiens, UniProt Q9UNQ0)
Sequence of UniProt Q9UNQ0 (whole entry, looked up): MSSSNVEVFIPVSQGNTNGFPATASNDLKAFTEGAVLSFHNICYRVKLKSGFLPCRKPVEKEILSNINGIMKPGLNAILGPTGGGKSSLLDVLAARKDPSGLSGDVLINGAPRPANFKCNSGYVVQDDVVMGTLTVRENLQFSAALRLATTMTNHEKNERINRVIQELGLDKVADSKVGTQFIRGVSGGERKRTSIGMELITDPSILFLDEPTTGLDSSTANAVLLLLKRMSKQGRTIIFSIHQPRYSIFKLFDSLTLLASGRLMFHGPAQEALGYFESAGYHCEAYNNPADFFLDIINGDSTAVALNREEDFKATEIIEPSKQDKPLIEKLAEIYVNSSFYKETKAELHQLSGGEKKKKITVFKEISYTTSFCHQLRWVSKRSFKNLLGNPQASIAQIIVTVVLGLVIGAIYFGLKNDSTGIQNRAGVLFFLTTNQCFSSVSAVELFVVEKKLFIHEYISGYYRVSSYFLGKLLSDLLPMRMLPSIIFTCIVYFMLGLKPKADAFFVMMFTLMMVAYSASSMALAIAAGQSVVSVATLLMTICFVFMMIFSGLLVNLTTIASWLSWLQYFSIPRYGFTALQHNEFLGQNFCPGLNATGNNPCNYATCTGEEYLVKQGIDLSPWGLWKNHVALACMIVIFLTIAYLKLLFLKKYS
Sequence of UniProt O15438 (whole entry, looked up): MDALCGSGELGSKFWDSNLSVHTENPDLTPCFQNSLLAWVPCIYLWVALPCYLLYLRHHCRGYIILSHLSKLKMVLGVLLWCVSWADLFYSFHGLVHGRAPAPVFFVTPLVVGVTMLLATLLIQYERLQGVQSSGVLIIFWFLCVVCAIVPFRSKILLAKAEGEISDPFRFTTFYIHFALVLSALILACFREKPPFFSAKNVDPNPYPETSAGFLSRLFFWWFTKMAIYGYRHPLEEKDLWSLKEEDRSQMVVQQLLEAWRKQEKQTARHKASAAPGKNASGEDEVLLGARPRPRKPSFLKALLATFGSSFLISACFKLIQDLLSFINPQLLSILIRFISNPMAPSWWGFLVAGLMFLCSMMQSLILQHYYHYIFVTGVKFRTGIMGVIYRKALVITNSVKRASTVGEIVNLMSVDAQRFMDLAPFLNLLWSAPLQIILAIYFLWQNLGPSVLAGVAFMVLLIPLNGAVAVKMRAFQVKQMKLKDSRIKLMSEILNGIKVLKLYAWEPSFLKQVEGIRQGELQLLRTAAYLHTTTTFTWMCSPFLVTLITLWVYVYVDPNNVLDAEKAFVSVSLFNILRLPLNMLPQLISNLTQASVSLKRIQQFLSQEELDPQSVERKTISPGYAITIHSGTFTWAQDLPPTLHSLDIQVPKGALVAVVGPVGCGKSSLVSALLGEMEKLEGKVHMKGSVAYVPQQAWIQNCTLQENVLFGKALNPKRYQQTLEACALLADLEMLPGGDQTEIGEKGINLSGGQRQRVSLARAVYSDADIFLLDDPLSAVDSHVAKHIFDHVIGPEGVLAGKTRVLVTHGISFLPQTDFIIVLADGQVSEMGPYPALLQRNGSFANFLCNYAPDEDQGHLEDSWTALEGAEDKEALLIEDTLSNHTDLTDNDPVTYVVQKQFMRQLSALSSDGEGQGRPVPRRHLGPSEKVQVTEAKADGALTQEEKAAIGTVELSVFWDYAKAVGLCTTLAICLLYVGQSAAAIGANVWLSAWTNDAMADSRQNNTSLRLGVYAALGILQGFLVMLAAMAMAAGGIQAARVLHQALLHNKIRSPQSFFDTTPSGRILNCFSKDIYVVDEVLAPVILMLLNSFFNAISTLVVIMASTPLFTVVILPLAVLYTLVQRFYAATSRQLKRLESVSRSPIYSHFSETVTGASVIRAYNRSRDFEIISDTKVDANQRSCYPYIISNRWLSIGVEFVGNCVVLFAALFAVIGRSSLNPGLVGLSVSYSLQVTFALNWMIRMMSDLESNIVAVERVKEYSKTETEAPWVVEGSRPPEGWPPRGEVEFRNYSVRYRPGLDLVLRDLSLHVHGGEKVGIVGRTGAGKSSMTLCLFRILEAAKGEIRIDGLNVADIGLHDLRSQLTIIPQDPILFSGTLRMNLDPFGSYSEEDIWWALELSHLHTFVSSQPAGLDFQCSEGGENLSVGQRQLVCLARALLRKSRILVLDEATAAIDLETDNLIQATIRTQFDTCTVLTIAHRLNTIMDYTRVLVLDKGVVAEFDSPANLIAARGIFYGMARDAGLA

| Compound | target | assay | system | setting | how to read | measurement | value |
| --- | --- | --- | --- | --- | --- | --- | --- |
| N#C[C@H](C[C@@H]1CCCNC1=O)NC(=O)[C@H](CC1CC1)NC(=O)c1cc2cccc(Cl)c2[nH]1 | CYP2A6 | NADPH metabolic stability | – | 2 µM, pH 7.4, 37 °C, 100 pmol/mL enzyme | – | half-life | > 2.13 h |
| c1ccc(OC[C@@H]2CN(CCN3CCc4ccccc43)CCO2)cc1 | KCNH2 | potassium current inhibition, inhibitor, PatchXpress electrophysiology | – | – | – | Hill slope | 0.51 ± 0.15 |
| NC/C(=C\F)COc1cccc(Cn2c(=S)[nH]c(=O)c3[nH]cnc32)c1 | ATP-binding cassette sub-family C member 3 (ABCC3, Homo sapiens, UniProt O15438) | transport, inhibitor | HEK cells expressing ABCC3 | 30 µM, with: CDCF substrate | – | inhibition | < 50% |
| C=CCN=C=S | CYP2A6 | enzyme activity | human liver microsomes | concentration not given, 10 min, with: coumarin | – | inhibition | > 75% |
| C=CC(=O)N1C[C@H](Nc2ncnc3[nH]ccc23)CC[C@@H]1C | CYP3A | substrate | human | oral, single dose, with: itraconazole multiple doses | – | terminal half-life | 1.2 ± 0.1 h |
| Cc1cc(Nc2ncnc3ccc(NC4=NC(C)(CO)CO4)cc23)ccc1Oc1ccn2ncnc2c1 (centres unmarked) | CYP3A4 | – | human, plasma | tucatinib, day 6, with: itraconazole | – | Tmax (median) | 2 h |
| [H]/N=C(/N)c1ccc(NCc2nc3cc(C(=O)N(CCC(=O)O)c4ccccn4)ccc3n2C)cc1 | P-glycoprotein | substrate | healthy human, plasma | oral, dose not given, adjusted geometric mean, with: vepdegestrant | relative to: with vepdegestrant over alone | AUCinf ratio | 198% |
| C[C@@H](c1ccc2nccn2c1)n1nnc2ncc(-c3cnn(C)c3)nc21 | CYP3A4 (human) | mRNA induction, inducer, measured: CYP3A4 mRNA | primary human hepatocytes | 48 h | – | EC50 | 6.1 ± 0.8 µM |
| CCOc1ccc(Cc2cc([C@]34OC[C@](CO)(O3)[C@@H](O)[C@H](O)[C@H]4O)ccc2Cl)cc1 | CYP3A4 (human) | reaction phenotyping | human | oral, 25 mg | – | fraction metabolised (fm) | 0.1 |
| C[C@H]1CN(C2COC2)CCN1c1ccc(Nc2cc(-c3ccnc(N4CCn5c(cc6c5CC(C)(C)C6)C4=O)c3CO)cn(C)c2=O)nc1 | human CYP1A2 | – | human liver microsomes | 1 µM, 60 min, pH 7.4, with: furafylline 10 µM, NADPH | relative to: 0 min | remaining compound | 57.4 ± 7.5% |
| NC(=NCc1ccccc1)NC(=O)c1nc(Cl)c(N)nc1N | Genome polyprotein, 3D RNA polymerase (Coxsackievirus B3, UniProt P03313) | AMP incorporation, pre-steady-state burst | – | – | relative to: without over with Mg2+ preincubation | IC50 shift | 5 fold |
| Cc1cc(Nc2ncnc3ccc(NC4=NC(C)(C)CO4)cc23)ccc1Oc1ccn2ncnc2c1 | ABCG2 | bidirectional transwell permeability | MDCKII cells transfected with ABCG2 | 1 µM, 1 h, pH 7.4, with: Ko143 1 µM | – | Papp A-B | 116 ± 19.1 nm/s |
| COc1ccc(F)cc1C(=O)NCc1ccc(-c2nn([C@@H](C)C(F)(F)F)c(N)c2C(N)=O)cc1 | CYP3A4 | – | human liver microsomes | – | – | fraction unbound | 0.97 |
| CN(C(=O)n1cnc(-c2ccc[n+]([O-])c2)c1)C1CCCCC1 | CYP2A6 | enzyme activity, inhibitor | pooled human liver microsomes | 0.1 to 30 µg/mL | – | inhibition | no effect |
| CC[C@H]1[C@@H](O)[C@@H]2[C@H](CC[C@]3(C)[C@@H]([C@H](C)CCNC(=O)NS(=O)(=O)c4ccc(C(C)(C)C)cc4)CC[C@@H]23)[C@@]2(C)CC[C@@H](O)C[C@@H]12 | CYP3A4 | substrate | human, plasma | 10 mg, alone, study day 1 | – | half-life geometric mean | 10.4 h |
| c1c[nH]cn1 | CYP2A6 | binding | – | – | – | Kd | 42.8 µM |
| CCOc1cc2ncc(C#N)c(Nc3ccc(OCc4ccccn4)c(Cl)c3)c2cc1NC(=O)/C=C/CN(C)C | ABCG2 | bidirectional transwell permeability | MDCKII cells transfected with ABCG2 | 1 µM, 1 h, pH 7.4, with: Ko143 1 µM | – | efflux ratio | 1.4 ± 0.16 |
| Cc1cc(C)c(CNC(=O)c2cc(Cl)c3c(c2C)O[C@@](C)([C@H]2CC[C@H](N(C)C)CC2)O3)c(=O)[nH]1 | alpha-1-acid glycoprotein, human | population PK model | human, plasma | oral | – | total binding capacity Rmax | 8280 nmol/L |
| Cc1cc(/C=C/C#N)cc(C)c1Nc1ccnc(Nc2ccc(C#N)cc2)n1 | KCNH2 | hERG current, manual patch clamp | CHO stably expressing hERG | 10 µM | – | inhibition | 93.7% |
| CC(C)c1nc(N(C)S(C)(=O)=O)nc(-c2ccc(F)cc2)c1/C=C/[C@@H](O)C[C@@H](O)CC(=O)O | ABCG2 | substrate | Caco-2 | 5 µM, 2 h, with: Ko143 5 µM | – | Papp (B to A) | 76 ± 2.4 nm/s |
| C[C@]12CCCN1CC1=NNC(=O)c3cc(F)cc4[nH]c2c1c34 | ABCG2 | substrate | membrane vesicles | 30 µM, with: ATP | – | uptake rate | 8.25 ± 4 pmol/min/mg |
| COc1ccc2c3c([nH]c2c1)[C@H](CC(C)C)N1C(=O)[C@H](CC(=O)NC(C)C)NC(=O)[C@@H]1C3 | ABCG2 | inhibitor, measured: protoporphyrin IX | A549 | 0.1 µM, 2 h, with: 1 mM ALA | – | inhibition | 16.5% and 3.48% and 19.2% and 5.15% |
| CN1C[C@@H]2C[C@H]1CN2c1cc2c(cc1F)c(=O)c(C(=O)O)cn2C1CC1 | ABCG2 | transepithelial transport | MDCK-II transduced with ABCG2 | 10 µM, 4 h | relative to: B-A over A-B | efflux ratio | 3.22 ± 0.98 |
